Measurements collected from several papers.
Compare with care: the assays were run in different laboratories. Numbers after ± are the reported error.
DNA polymerase catalytic subunit: DNA polymerase catalytic subunit (Human cytomegalovirus, UniProt P08546)
Chain of UniProt P08546 (whole entry, looked up): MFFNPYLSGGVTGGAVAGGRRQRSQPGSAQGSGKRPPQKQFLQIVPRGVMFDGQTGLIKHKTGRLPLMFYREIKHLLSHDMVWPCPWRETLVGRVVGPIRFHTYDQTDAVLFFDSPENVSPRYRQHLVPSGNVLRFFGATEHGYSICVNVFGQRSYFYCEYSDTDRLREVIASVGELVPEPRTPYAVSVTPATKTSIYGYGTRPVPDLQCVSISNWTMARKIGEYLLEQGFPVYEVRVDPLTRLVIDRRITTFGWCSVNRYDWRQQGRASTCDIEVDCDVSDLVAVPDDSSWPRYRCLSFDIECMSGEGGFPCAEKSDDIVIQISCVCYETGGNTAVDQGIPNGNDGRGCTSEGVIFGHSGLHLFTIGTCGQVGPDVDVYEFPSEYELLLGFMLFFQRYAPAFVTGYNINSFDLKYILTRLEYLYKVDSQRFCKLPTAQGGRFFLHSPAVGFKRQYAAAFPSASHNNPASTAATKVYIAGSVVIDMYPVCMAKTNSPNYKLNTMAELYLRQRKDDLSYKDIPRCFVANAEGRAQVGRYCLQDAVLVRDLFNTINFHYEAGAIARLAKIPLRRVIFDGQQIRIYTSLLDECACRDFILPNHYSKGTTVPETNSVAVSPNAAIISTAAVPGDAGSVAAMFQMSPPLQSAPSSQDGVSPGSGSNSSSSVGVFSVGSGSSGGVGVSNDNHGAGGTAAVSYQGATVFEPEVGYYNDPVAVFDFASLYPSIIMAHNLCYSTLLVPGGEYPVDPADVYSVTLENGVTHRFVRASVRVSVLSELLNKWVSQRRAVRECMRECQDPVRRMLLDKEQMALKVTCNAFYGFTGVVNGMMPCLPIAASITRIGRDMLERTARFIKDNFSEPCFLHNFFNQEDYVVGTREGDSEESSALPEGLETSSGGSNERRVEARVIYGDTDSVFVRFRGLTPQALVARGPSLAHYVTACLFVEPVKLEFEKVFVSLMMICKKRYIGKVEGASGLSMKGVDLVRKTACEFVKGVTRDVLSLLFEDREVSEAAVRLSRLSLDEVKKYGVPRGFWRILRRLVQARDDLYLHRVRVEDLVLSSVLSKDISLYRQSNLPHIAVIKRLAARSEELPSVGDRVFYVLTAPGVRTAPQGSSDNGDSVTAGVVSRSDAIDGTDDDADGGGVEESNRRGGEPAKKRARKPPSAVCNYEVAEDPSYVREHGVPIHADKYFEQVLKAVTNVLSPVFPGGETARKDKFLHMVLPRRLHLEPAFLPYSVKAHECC
CCR1: C-C chemokine receptor type 1 (CCR1, Homo sapiens, UniProt P32246)
Chain of UniProt P32246 (whole entry, looked up): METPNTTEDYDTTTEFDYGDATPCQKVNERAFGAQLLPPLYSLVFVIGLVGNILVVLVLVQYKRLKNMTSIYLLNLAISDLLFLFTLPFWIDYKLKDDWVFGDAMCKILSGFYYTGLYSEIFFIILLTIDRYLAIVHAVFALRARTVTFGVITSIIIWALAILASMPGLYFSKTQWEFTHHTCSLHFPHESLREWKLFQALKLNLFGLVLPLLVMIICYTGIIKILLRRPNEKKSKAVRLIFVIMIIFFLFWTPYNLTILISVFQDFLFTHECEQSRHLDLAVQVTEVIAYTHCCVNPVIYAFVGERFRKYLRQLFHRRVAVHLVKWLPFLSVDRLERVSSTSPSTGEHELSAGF
MMP13: Collagenase 3 (MMP13, Homo sapiens, UniProt P45452)
Grin1 with GluN2A: Glutamate receptor ionotropic, NMDA 1, with GluN2A (Grin1, Rattus norvegicus, UniProt P35439)
Chain of UniProt Q16620 (whole entry, looked up): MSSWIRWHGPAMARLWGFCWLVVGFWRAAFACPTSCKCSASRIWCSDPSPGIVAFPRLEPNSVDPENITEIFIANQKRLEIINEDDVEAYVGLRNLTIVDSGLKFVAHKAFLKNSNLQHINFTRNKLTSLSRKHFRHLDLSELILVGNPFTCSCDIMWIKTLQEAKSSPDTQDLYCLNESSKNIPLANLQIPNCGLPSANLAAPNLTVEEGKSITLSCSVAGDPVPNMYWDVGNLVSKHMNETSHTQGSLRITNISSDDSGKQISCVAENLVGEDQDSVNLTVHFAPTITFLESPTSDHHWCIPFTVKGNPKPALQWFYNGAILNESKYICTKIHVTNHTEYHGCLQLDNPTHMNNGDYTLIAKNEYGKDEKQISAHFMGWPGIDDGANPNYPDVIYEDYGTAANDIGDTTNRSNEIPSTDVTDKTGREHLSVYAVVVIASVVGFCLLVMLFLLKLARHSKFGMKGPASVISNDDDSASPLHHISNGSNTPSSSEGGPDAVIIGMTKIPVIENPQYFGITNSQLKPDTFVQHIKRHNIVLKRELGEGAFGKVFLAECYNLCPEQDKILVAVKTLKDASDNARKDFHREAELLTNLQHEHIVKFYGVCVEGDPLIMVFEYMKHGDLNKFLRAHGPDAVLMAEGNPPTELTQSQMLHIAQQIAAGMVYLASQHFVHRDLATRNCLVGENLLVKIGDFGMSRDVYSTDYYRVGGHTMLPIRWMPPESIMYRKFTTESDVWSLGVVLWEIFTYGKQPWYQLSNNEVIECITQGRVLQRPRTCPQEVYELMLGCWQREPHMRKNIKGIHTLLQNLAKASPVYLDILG

`CC1(C)CN(C(=O)Cn2c(=O)c(C(=O)NCc3ccc(Cl)cc3)cc3nccnc32)C1` has a Hill slope of 1 (DNA polymerase catalytic subunit; enzyme activity, inhibitor).
`N[C@H](CNC(=O)c1cc(Br)c(-c2ccccc2F)s1)C(=O)O` has a Hill slope of 1.43 (Glutamate receptor ionotropic, NMDA 1, with GluN2C (Grin1, Rattus norvegicus, UniProt P35439, V689I); rat; with: glutamate 300 µM).
With `O=C(C1=C(O)C(=O)N(c2ccc(Br)cc2F)C1c1cccc(Br)c1)C1CC1` (centres unmarked) the Hill slope was -0.5 ± 0.07 (CCR1; inverse agonist; U2OS; no agonist).
For `CN1CCN(c2cnc3c(cc(C(=O)NCc4ccc(Cl)cc4)c(=O)n3CC(=O)N3CC(C)(F)C3)n2)C1=O`, the Hill slope was 1 (DNA polymerase catalytic subunit; enzyme activity, inhibitor; retest).
For `CC(=O)C1=C(O)C(=O)N(c2ccc(Cl)c(C)c2)C1C1CCCCC1` (centres unmarked), the Hill slope was -0.6 ± 0.05 (CCR1; inverse agonist; U2OS; no agonist).
With `C[C@H]1Oc2cc(cnc2N)-c2c(nn(C)c2C#N)CN(C)C(=O)c2ccc(F)cc21` the Hill slope was 1.61 (NTRK2 (Homo sapiens, UniProt Q16620); receptor phosphorylation; NG).
For `COc1cccc(CNC(=O)C#Cc2cn(Cc3ccc(C(=O)O)cc3)c(=O)[nH]c2=O)c1`, the Hill slope was -1.08 (MMP13; protease activity, FRET).
With `N[C@H](CNC(=O)c1ccc(-c2ccccc2)s1)C(=O)O` the Hill slope was 1.48 (Grin1 with GluN2A; with: glutamate 300 µM).
`CC1(F)CN(C(=O)Cn2c(=O)c(C(=O)NCc3ccc(Cl)cc3)cc3nc(N4CCNC4=O)cnc32)C1` has a Hill slope of 1.12 (DNA polymerase catalytic subunit; enzyme activity, inhibitor).
The Hill slope of `O=C(O)CCCOc1cccc(CNC(=O)C#Cc2cn(Cc3ccc(C(=O)O)cc3)c(=O)[nH]c2=O)c1` is reported as -0.666 (MMP13; protease activity, FRET).
`Cc1cc(C(=O)NC[C@@H](N)C(=O)O)sc1-c1ccccc1Br` has a Hill slope of 1.22 (Grin1 with GluN2A; with: glutamate 300 µM).

Repeated from above:
With `N[C@H](CNC(=O)c1ccc(-c2ccccc2)s1)C(=O)O` the Hill slope was 1.48 (Grin1 with GluN2A; with: glutamate 300 µM).
